Measurements from different studies.
Numbered parts are unrelated; each lists some results of a single study. Substitutions count along the parent as printed.

Study 1 — method: DHFR PCA, deep sequencing; matrix: yeast; together with: (+)-ABA 0 µM; relative to: wild-type fitted maximum; direction: higher = stronger binding
Target: ABI1, truncated, D143A, DHFR fusion (Arabidopsis thaliana)
Notes: methotrexate growth selection, single substitutions
Starting sequence: PYL1, truncated, DHFR fusion (Arabidopsis thaliana); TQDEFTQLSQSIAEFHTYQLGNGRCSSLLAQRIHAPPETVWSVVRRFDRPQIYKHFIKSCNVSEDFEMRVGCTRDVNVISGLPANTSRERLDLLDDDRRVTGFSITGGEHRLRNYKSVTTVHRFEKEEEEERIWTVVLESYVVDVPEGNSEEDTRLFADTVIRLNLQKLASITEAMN; partner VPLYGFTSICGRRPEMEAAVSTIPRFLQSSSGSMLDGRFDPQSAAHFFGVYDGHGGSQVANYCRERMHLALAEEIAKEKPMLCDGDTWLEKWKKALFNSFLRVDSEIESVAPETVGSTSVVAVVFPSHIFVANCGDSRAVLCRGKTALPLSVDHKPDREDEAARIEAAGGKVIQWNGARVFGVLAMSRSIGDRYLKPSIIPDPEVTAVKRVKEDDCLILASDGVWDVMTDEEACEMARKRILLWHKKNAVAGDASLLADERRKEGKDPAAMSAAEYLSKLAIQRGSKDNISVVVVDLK
Variant	relative binding score
A84S	35.3%
R69L	1.77%
Y53V	-4.1%
L138N	-6.13%
V70G	-1.15%
E125F	11.1%
R74A	2.43%
Q51T	-3.89%
L164G	9.64%
L166G	6.08%
E131I	16%
L28N	-1.4%
G148I	-20.9%
V143Y	-0.692%
E128P	6.07%
G23I	3.75%
I105S	1.64%
C60M	-2.42%
E129A	30.6%
E152S	6.68%
T101P	-3.77%
G71D	10.4%
G21S	29.7%
I12P	1.62%
L138Q	-5.13%

Study 2 — method: universal PBM; molecule type: double-stranded DNA, one strand shown; matrix: in vitro; tested at: 600 nM; direction: higher = stronger binding
Target: Sal-like protein 4, full length isoform A (SALL4, Homo sapiens, UniProt Q9UJQ4, residues 1-1053)
Sequence of UniProt Q9UJQ4 (whole entry, looked up): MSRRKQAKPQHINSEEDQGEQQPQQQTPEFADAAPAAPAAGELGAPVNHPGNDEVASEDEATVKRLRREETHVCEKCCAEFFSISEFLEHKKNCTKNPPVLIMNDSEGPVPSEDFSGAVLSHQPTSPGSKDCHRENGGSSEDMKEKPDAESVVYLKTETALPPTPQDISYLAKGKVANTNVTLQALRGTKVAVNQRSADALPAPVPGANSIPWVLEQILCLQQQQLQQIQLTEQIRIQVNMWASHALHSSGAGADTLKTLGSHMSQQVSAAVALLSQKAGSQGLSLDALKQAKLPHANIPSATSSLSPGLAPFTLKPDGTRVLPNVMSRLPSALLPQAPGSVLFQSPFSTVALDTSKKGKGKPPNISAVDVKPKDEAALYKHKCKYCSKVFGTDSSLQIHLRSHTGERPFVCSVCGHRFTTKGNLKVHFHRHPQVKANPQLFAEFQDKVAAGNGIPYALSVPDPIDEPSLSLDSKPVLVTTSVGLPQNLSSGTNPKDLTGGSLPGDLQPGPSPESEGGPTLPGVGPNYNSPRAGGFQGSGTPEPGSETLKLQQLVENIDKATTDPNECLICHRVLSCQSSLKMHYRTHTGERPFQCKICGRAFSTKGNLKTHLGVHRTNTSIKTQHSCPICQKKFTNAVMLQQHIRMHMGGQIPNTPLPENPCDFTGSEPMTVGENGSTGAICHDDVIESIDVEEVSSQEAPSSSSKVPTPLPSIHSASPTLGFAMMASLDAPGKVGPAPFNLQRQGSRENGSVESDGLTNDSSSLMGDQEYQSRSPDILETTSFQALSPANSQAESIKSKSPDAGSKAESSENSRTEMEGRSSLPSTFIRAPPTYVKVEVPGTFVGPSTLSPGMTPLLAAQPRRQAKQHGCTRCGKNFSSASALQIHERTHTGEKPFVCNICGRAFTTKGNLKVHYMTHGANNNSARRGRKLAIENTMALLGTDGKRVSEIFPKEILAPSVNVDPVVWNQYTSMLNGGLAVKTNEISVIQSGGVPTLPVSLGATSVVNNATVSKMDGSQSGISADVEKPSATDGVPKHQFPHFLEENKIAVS
Notes: 8-mer, flanks averaged, mean of replicates
Oligonucleotide	E-score
AAATCGTG	0.212
CAAGTCAA	0.0231
GGCTAGTA	0.00259
CCTCAGCC	-0.301
GAAGGAGC	-0.198
ACCCATTC	-0.0449
AGTTAGTA	0.132
AGGGGCTA	-0.0783
AAGAAGTG	-0.0442
GGAGCAAA	0.0971
ACAATCAC	0.112
AGTGAGTC	-0.164
GCACATGC	-0.123
ACCGGTTA	-0.0261
ACTTGAAA	0.117
ACCCGACA	-0.264
ATATCGTA	0.248
ACAGTTTC	0.0899
CAGGGACC	-0.36
ACGATTCC	0.0236
CACGCTGC	-0.283
AACGGATG	-0.093
AAAACCGG	-0.258
ATTGCGTC	0.0311

Study 3 — target: CCNB3, cyclin fold, Cln2 fusion (human); method: yeast growth competition, sequencing; matrix: yeast; notes: weak parent motif; relative to: not given; direction: higher = stronger binding
Starting sequence: SAMHD1 docking peptide (human); ASKSRVQLFKDDP
Variant	normalised enrichment score
ASKSRVQLFLDDP [K10L]	0.0917
ASKSRVQLFKDTP [D12T]	0.189
ALKSRVQLFKDDP [S2L]	0.0669
ASKSRVQLWKDDP [F9W]	0.0612
ASQSRVQLFKDDP [K3Q]	-0.237
ASKSRTQLFKDDP [V6T]	-0.0562
ASKSRVQKFKDDP [L8K]	-0.167
ASKSRVQLIKDDP [F9I]	0.203
ASKSRVFLFKDDP [Q7F]	0.209
ASKSFVQLFKDDP [R5F]	-0.0342
ASKSRFQLFKDDP [V6F]	0.0451
ASFSRVQLFKDDP [K3F]	0.213
ASKSRVQLYKDDP [F9Y]	-0.0364
ASKSRYQLFKDDP [V6Y]	-0.0192
ASKSRNQLFKDDP [V6N]	-0.0433
ASKSRVILFKDDP [Q7I]	-0.136
ASKSRVQLFFDDP [K10F]	-0.419
ASKSRVQSFKDDP [L8S]	0.0881
ASKTRVQLFKDDP [S4T]	0.122
ASKSRHQLFKDDP [V6H]	-0.293
ASKSRVWLFKDDP [Q7W]	0.0242
ASKSRVQLFADDP [K10A]	-0.122
ASKSRVQLFKIDP [D11I]	0.148

Study 4 — method: RNA Bind-n-Seq; molecule type: RNA; matrix: in vitro; tested at: not given; relative to: input RNA pool; direction: higher = stronger binding
Target: RING finger protein unkempt homolog, zinc fingers 1-6, GST-SBP tag (UNK, Homo sapiens, UniProt Q9C0B0, residues 30-357)
Notes: RNA with constant flanks, human and mouse sites, ends assumed
Shared flanks, not repeated: GGGAGUUCUACAGUCCGACGAUC … CAACAGAGGAUUGAGCAUCA
Construct (chain): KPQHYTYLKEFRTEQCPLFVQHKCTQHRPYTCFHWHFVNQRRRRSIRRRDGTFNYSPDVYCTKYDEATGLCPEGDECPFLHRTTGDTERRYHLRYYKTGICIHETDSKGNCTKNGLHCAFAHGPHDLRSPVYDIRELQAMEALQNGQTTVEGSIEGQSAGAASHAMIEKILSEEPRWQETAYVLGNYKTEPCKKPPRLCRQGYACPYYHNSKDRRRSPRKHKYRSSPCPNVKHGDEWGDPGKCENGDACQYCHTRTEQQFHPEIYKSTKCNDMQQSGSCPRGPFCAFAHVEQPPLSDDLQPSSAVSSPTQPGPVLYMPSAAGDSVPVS
Oligonucleotide	bound/input enrichment [ratio]
ACCGAUUUAUAUGACAUAAAACGUGCAGUUGUUCAUACCCAUCUUCUUAACCCUGAGUGGUUAGUGAAUUACUUUGGGUCCUUAUCAGUUGAAGAUUCCCUAGAAUGCCUCAGAGCCAUG	0.171
CGAGUUCUGGCAGCUUUACAGGAGCGACUUGACAAUGUCCCUCACACCCCUUCCAGCUACAUCGAAACUUUACCUAAAGCAGUAAAAAGAAGAAUUAAUGCAUUGAAACAACUUCAGGUG	0.139
UUUUAAGUGUGUCAUUGCCCUCCCCUGUGGUCAUCUGGGUACCCCUGCCCAUCCAUUGUUUUUAGAACAACCCUAACUGCUUCGGAAAACACUCCCAAGAACUCUAGUGUUGGUUUGUCU	0.731
GGGGCCGAUGCAGAGACUUUCUCAGAGGGUGAGAUGGUCACAUUUAUAAACUGGGGCAACAUCAACAUUACUAAAAUACACAAAAAUGCAGAUGGAAAAAUUACAUCUCUAGAUGCAAAA	0.47
GGACACGUCCGCGCGCAGUGGGAGCCCCAUGAGUAUCCGGCCAGCAUGGAGCGGAUGCAGAACUGGACCCCGGAUGAGUGCAUUCCGGAGUUCUACACCGAUCCCUCUAUCUUCCGCUCC	0.0769
GUAUUUCAGUUUGCAGUAGAUUGUGAGUGUGUGCGCUAAGUAAAAGUUCCAUGAUUCACAAUUUGGGUAUUAACCAUAUCAAAGAAGCUGUUACUGGUCAGCAGAAUCUAAUGAUGUGCU	0.263
CAAAUGCGCUCUUUCAAACCAUUCAUUAUCCUGUGUAUUUUUAAUGUGGUUUUAGUAAAUGUUGGUAGUAGCUCUGUUGAAGUAGGUAAUUGUGUUAUGUUUUGGGUGGUACACACUUGG	4.49
UUUUCUUUUUCUUUUUUUUUUCUUUUUUUUGGUUCUUUCUGACUGCUUUGUAAUAAAGAUUUACCAAGUCAUUGUCAGUCUAAGUCACAAAAAUAUCCAGUUUAACAUAAAGCUGUCUGU	1.3

Study 5 — target: JUND, bZIP domain (human); method: DHFR protein complementation; matrix: yeast; relative to: wild-type JUN-FOS pair; direction: higher = stronger binding
Notes: single substitutions, most at no-binding floor
Starting sequence: JUN, bZIP domain (human); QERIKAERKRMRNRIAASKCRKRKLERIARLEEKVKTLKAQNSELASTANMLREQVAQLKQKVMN
Variant	binding fitness [natural log]
L52R	-1.46
L52W	-1.33
R30P	-1.41
L45I	-1.28
R53G	-1.28
L52C	-1.45
V56Q	-1.41
L52M	-1.29
E33P	-1.48
L31E	-1.41
T37P	-1.46
V56S	-1.42

Repeated from above (study 3):
Variant	normalised enrichment score
ASKSRVQLWKDDP [F9W]	0.0612
ASQSRVQLFKDDP [K3Q]	-0.237
ASKSRTQLFKDDP [V6T]	-0.0562
ASKSRVQKFKDDP [L8K]	-0.167
ASKSRVQLIKDDP [F9I]	0.203
ASKSRVFLFKDDP [Q7F]	0.209
